Experimental data from different studies.
Each line is one published result; not all experiments were run side by side. Numbers after ± are the reported error.

`N=C(N)NCCC[C@@H]1NC(=O)[C@H](Cc2c[nH]c3ccccc23)NC(=O)[C@@H](CC2CCCCC2)NC(=O)[C@@H]2CCCN2C(=O)[C@@H](NC(=O)CCc2ccccc2)CCCNC1=O`: “elimination rate constant” 0.00025 s⁻¹ (C57BL/6J mice, spinal cord; oral, 1 mg/kg, two-compartment model).
The quantum yield of `NCCCC(=O)OCC(=O)c1cc(F)c(O)c(F)c1.O=C(O)C(F)(F)F` is reported as 0.04 (photolysis, refers to: rearranged acid appearance; aqueous HEPES buffer with LiClO4; pH 7.3).
`COc1cc2c(cc1OC)CN(CCCCn1ccc3cc(OCC[18F])ccc31)C2` has an uptake of 7.1 ± 1.12 %ID/g (ICR mice, male, lung; intravenous, 30 min).
`C[C@H](Oc1cc(-c2cnn(C3CCN(CC[18F])CC3)c2)cnc1N)c1c(Cl)ccc(F)c1Cl` gave a tracer uptake of 7.1 ± 1 %ID/cc (PET imaging; nude mouse, liver; iv, 10 min post injection).
`COc1cc(NC(C)=O)c2c(c1O)-c1c(OC)c(OC)cc3c1C(C2)N(C)CC3` (centres unmarked) has a remaining compound of 102 ± 2.9% (rat brain homogenate; 0.5 µg/mL, time not given, three freeze-thaw cycles).
For `O=C([O-])CN1CCN(CC(=O)[O-])CCN(CC(=O)NCC2CCC(C(=O)NC(Cc3ccc4ccccc4c3)C(=O)NCCCCC(NC(=O)NC(CCC(=O)O)C(=O)O)C(=O)O)CC2)CCN(CC(=O)[O-])CC1.[44Sc+3]` (centres unmarked), the intact complex was 97.7 ± 0.5% (transmetallation stability; 4 h, 37 °C, with: Mg2+ 10 mM).
`CC[C@@H](C)N([11CH3])C(=O)c1nc(-c2ccccc2Cl)c2ccccc2n1`: “plasma free fraction” 0.08 (ultrafiltration; rhesus monkey, plasma; baseline scan).
`CC[C@H](C)[C@H](NC(=O)[C@H](N)Cc1ccc(O)cc1)C(=O)N[C@H]1CSSC[C@@H](C(=O)N(C)[C@H](C(N)=O)[C@@H](C)CC)NC(=O)[C@H](CCCNC(=N)N)NC(=O)[C@H](Cc2c[nH]cn2)NC(=O)[C@H](C)NC(=O)CN(C)C(=O)[C@H](Cc2c[nH]c3ccccc23)NC(=O)[C@H](CC(=O)O)NC(=O)[C@H](CCC(N)=O)NC(=O)[C@H](Cc2cn(C)c3ccccc23)NC(=O)[C@H](C(C)C)NC1=O` has a recovery of 100.8 ± 0.3% (UPLC-ESI-MS; cynomolgus monkey plasma; 3.58 µg/mL, 48 h, 4 °C, autosampler after SPE).
`Cc1cc(CN2CCN(c3c(Br)cnc4nc(-c5ccc(N6CCN(C)CC6)cc5)[nH]c34)CC2)no1` — result for “free plasma concentration”: roughly 0.06 µM (female athymic CrTac:NCr-Foxn1(nu) mice, plasma; oral, 75 mg/kg twice daily for 3 days, 1 and 6 h after last dose).
`COc1cc(-c2nc3ccccc3s2)cc(CN2CCN(CC(=O)OC(C)C)CCN(CC(=O)OC(C)C)CC2)c1O` gave a pKa2 of 6.48 (UV-Vis pH titration; 25 °C, ionic strength 0.1 M NaCl).
For `CN1CCCNC(=O)c2cccc(c2)C(=O)NCCCN(C)CCCNc2cccc3c2C(=O)c2cccc(c2C3=O)NCCC1`, kidney histopathology read “no effect” (tumour-free KSN/Slc nude mice, kidney; dose not given, 10 days).
`CCCC[C@H](NC(=O)CNC(=O)CNC(=O)CN1CCN(CC(=O)O)CCN(CC(=O)O)CCN(CC(=O)O)CC1)C(=O)N[C@H]1CC(=O)NCCCC[C@@H](C(N)=O)NC(=O)[C@H](Cc2c[nH]c3ccccc23)NC(=O)[C@H](CCCNC(=N)N)NC(=O)[C@@H](Cc2ccccc2)NC(=O)[C@H](Cc2c[nH]cn2)NC1=O` [copper-64 labelled] has an uptake ratio of 2.53 (female C57 mouse, B16/F1 melanoma; intravenous, 0.037 MBq, 0.5 h; relative to: tumour over heart).
`CC[C@H](C)[C@H](NC(=O)[C@H](CC(C)C)NC(=O)[C@H](Cc1c[nH]c2ccccc12)NC(=O)[C@H](C)NC(=O)[C@@H](NC(=O)[C@H](Cc1ccccc1)NC(=O)[C@H](CC(=O)O)NC(=O)[C@H](CCCNC(=N)N)NC(=O)[C@H](C)NC(=O)[C@H](C)NC(=O)[C@H](CC(C)C)NC(=O)[C@H](C)NC(=O)[C@H](CC(=O)O)NC(=O)[C@H](CC(C)C)NC(=O)[C@@H](NC(=O)[C@@H](NC(=O)[C@H](C)NC(=O)[C@H](CC(C)C)NC(=O)[C@H](CCC(=O)O)NC(=O)[C@H](CO)NC(=O)[C@H](CO)NC(=O)[C@H](Cc1ccccc1)NC(=O)[C@@H](NC(=O)CNC(=O)[C@H](CCC(=O)O)NC(=O)CNC(=O)[C@@H](N)Cc1c[nH]cn1)[C@@H](C)O)[C@@H](C)O)[C@@H](C)CC)[C@@H](C)CC)C(=O)N[C@@H](C)C(=O)N[C@H](C(=O)N[C@@H](CCCCN)C(=O)N[C@H](C(=O)N[C@H](C(=O)N[C@@H](CC(=O)O)C(=O)N[C@@H](CCCCN)C(=O)N[C@@H](CCCCN)C(=O)O)[C@@H](C)O)[C@@H](C)CC)[C@@H](C)O` has an AUClast of 14.3 nM·h (immunoaffinity LC-MS/MS; healthy human subjects, plasma; subcutaneous, 10 mg once weekly, day 36 after 6 doses, steady state, geometric mean).
Under “moderate pain-producing concentration”, `COc1cc(CC(=O)N/C=C/c2ccc(C(F)(F)F)cc2)ccc1O` is recorded as 0.101 mg/mL (eye-wiping; C57BL/6 mice, both sexes; ocular instillation, 1 min).
The kidney uptake of `O=C(O)CN1CCCN2CCN(CC1)CCN(CC(=O)O)CC2` [copper-64 labelled] is reported as 0.18 ± 0.05 %ID/g (Lewis rat, male, juvenile, kidney; intravenous, 100 µCi, 24 h).
With `CC(C)(O)c1ncc([S@](N)(=O)=NC(=O)Nc2c3c(cc4c2CCC4)CCC3)s1` the AUC(0-tau) was 29400 ng·h/mL (healthy human; oral, 30 mg once daily, day 14, capsule formulation, geometric mean).
The tissue concentration of `CC/C=C\C/C=C\C/C=C\C/C=C\C/C=C\CCCCOC(CC)C(=O)O` (centres unmarked) is reported as 3.6 µg equivalents/g tissue (radioactivity, 14C-labelled; Wistar rat, male, muscle; oral, 100 mg/kg, 1 h).
`Cn1c(=O)oc2ccc(-c3ccc(CC(C#N)NC(=O)C4CNCCCO4)c(F)c3)cc21` (centres unmarked) — result for “subjects with TEAE”: 0% (refers to: blood bilirubin increased; human; 80 mg single dose, fasted).
With `CCCC[C@H](NC(C)=O)C(=O)N[C@H]1CC(=O)NCCCC[C@@H](C(=O)N[C@@H](C(=O)N2CCC[C@@H]2C(N)=O)C(C)C)NC(=O)[C@H](Cc2c[nH]c3ccccc23)NC(=O)[C@H](CCCN=C(N)N)NC(=O)[C@@H](Cc2ccc3ccccc3c2)NC(=O)[C@@H]2CCCN2C1=O` the plasma histamine was 14.8 ng/mL (healthy dogs, plasma; subcutaneous, 2.25 mg/kg per day, day 5, 4 h post-dose, median).
With `CC(C)[C@H](NC(=O)[C@@H]1CCCN1C(=O)[C@H](CCCNC(=N)N)NC(=O)[C@H](CS)NC(=O)[C@H](Cc1c[nH]c2ccccc12)NC(=O)[C@H](CCCNC(=N)N)NC(=O)[C@@H](Cc1ccccc1)NC(=O)[C@H](Cc1c[nH]cn1)NC(=O)[C@H](CCC(=O)O)NC(=O)[C@H](CS)NC(=O)[C@H](CS)NC(=O)COCCOCCNC(=O)[C@@H]1CC(=O)N[C@@H](CCCNC(=N)N)C(=O)NCC(=O)N[C@@H](CC(=O)O)C(=O)N[C@H](Cc2ccc(O)cc2)C(=O)N1)C(N)=O` [technetium-99m labelled] the tissue/plasma ratio was 1.13 ± 0.08 (nude mice, M21 melanoma xenograft; intravenous, 0.037 MBq, 2 h; relative to: tumour over blood).

Excerpt of the above:
`CC[C@H](C)[C@H](NC(=O)[C@H](CC(C)C)NC(=O)[C@H](Cc1c[nH]c2ccccc12)NC(=O)[C@H](C)NC(=O)[C@@H](NC(=O)[C@H](Cc1ccccc1)NC(=O)[C@H](CC(=O)O)NC(=O)[C@H](CCCNC(=N)N)NC(=O)[C@H](C)NC(=O)[C@H](C)NC(=O)[C@H](CC(C)C)NC(=O)[C@H](C)NC(=O)[C@H](CC(=O)O)NC(=O)[C@H](CC(C)C)NC(=O)[C@@H](NC(=O)[C@@H](NC(=O)[C@H](C)NC(=O)[C@H](CC(C)C)NC(=O)[C@H](CCC(=O)O)NC(=O)[C@H](CO)NC(=O)[C@H](CO)NC(=O)[C@H](Cc1ccccc1)NC(=O)[C@@H](NC(=O)CNC(=O)[C@H](CCC(=O)O)NC(=O)CNC(=O)[C@@H](N)Cc1c[nH]cn1)[C@@H](C)O)[C@@H](C)O)[C@@H](C)CC)[C@@H](C)CC)C(=O)N[C@@H](C)C(=O)N[C@H](C(=O)N[C@@H](CCCCN)C(=O)N[C@H](C(=O)N[C@H](C(=O)N[C@@H](CC(=O)O)C(=O)N[C@@H](CCCCN)C(=O)N[C@@H](CCCCN)C(=O)O)[C@@H](C)O)[C@@H](C)CC)[C@@H](C)O` has an AUClast of 14.3 nM·h (immunoaffinity LC-MS/MS; healthy human subjects, plasma; subcutaneous, 10 mg once weekly, day 36 after 6 doses, steady state, geometric mean).
Under “moderate pain-producing concentration”, `COc1cc(CC(=O)N/C=C/c2ccc(C(F)(F)F)cc2)ccc1O` is recorded as 0.101 mg/mL (eye-wiping; C57BL/6 mice, both sexes; ocular instillation, 1 min).
